Measured values pooled from the literature.
Numbered parts are unrelated; each lists some results of a single study.

Sample 1
Target: RING finger protein unkempt homolog, zinc fingers 1-6, GST-SBP tag (UNK, Homo sapiens, UniProt Q9C0B0, residues 30-357)
Chain of UniProt Q9C0B0 (30-357, looked up): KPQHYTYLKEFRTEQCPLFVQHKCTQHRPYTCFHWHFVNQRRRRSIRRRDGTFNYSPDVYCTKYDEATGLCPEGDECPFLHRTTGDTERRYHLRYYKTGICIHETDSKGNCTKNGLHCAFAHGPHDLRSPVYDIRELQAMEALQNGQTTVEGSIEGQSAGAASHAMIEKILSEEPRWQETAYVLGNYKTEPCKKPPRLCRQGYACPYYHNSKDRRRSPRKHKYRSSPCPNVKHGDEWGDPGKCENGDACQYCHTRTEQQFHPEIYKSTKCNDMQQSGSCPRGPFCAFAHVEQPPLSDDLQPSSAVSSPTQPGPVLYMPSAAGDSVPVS
Method: RNA Bind-n-Seq
Molecule type: RNA
Medium: in vitro
Concentration: not given
Setting: RNA with constant flanks, human-mouse chimeric sites, ends assumed
Relative to: input RNA pool
Direction: higher = stronger binding
Constant ends, left off below: GGGAGUUCUACAGUCCGACGAUC … CAACAGAGGAUUGAGCAUCA
Oligonucleotide	bound/input enrichment [ratio]
ACUCAGAGAUCCACCUCCCAAAGUGCUGGGAGUAAAGGUGUGGCCACCACACCUAACUUGAUGGAUAUAUAUUUUUUUUAAUAUGAAUGAACUCUUGCUUCAUCCAGAGAAAGAUUUGUU	0.383
AUGGAGAAGGAUUCUCUGCCCCGCUUUGUGCGCUCUGAGUUUUAUCAGGAGCUAAUCAAGUAGUCAUCUGGUCAGGCUUCCAAAAGUUGCCCUGUGAGUUGAGUUACAUCCUUUGUAGCA	0.166
UAAAUCCUGUGCCAGCACUUCGCUCAUAAAGUUUUAAAUUCUGGACCAAUAGUGUUUGUUUCCUGAUUAUUGUAUCCAAUACUUUGCGUACUAUGUGACUCACUCUUACUGAUAAUAAAA	0.728
GGGGAGAAACCUUACGAGUGUGUGCAGUGUGGGAAAUCCUACAGUCAGAGCUCAAACCUCUUCAGACAUCAGAGAAGACACAAUGCAGAAAAACUUUUGAAUGUUGUGAAGGUUUAAGAA	0.217
CCUGCUCAGAUCACCAUGAAAGUAAUCCAAGGCUUGUAUAGUGGGGUCACCACAGUGGAACUGGACACCCUGGCUGCUGAAACAGCUGCGACCUUGACCACGAAGCACCCUGACUAUGCC	0.125
AAAGAGAAACUAAAGCAACUAAUAGAGGAAGAGGAUUGGCAAAGAGAUUUCAUAGAGAAACUAGGAUUUAUUAGCAAACAUGAGUUAUAUUCCAGAGCGUCUCAGAAACCCCAGCCAAAC	3.54
CGCCUGGAUGAGGCGGGUGUCACAGAUGAAGUGCUAGAUUCUGCCAUGCAAGCCUUCCUUCUGGAGGUCAUUGUUAAGCAUGGGGAGCCGGCACCUUAUUUAUGUAACAAAGAUCCGUUU	0.0726
AAUUUCCUGUCAUACUUUGUAGCAAGAGCCAUAGGUAUUACAGAGCACCUGGCCACAUUCUAGGUUUGUGUUAUUUCUCAGCUAUGGAUAUGAUCAAAUGAGAACACUGCUUAACUAAUG	0.392
GGACCAUAAUCAUGGAGGACAUAAUGCAGCUCCCCAAAGCGCGCGUCAACGCCGGCAUGUUACCACAGUAUAUCGACCGGCCCGUGUGCUUCGUGGGGAAGCUGGAAAAGAUUCAUCCCA	0.0801
GUGUCCUUUCAACUUAAUAAAUCACUGAGGCAUCUCUACUGUUCUGUGAGCAUCAGGACUGUAGCGCUUGCCACCACCAUGAGAGUUCAGAAGCAGCCUUUCUGUGGAGGGUGGGAAUGA	0.182
CUCAGAGACGUGGCAUAUCAGUAUGUGAAAAAGGGGGCUCGAAUUUAUGUGGAAGGGAAAGUGGACUAUGGCGAGUACAUGGAUAAAAACAAUGUGAGGCGGCAAGCAACAACAAUCAUA	0.373

Sample 2
Target: Centromere-binding protein 1, full length, His-tagged (CBF1, Saccharomyces cerevisiae, UniProt P17106, residues 1-351)
Chain of UniProt P17106 (whole entry, looked up): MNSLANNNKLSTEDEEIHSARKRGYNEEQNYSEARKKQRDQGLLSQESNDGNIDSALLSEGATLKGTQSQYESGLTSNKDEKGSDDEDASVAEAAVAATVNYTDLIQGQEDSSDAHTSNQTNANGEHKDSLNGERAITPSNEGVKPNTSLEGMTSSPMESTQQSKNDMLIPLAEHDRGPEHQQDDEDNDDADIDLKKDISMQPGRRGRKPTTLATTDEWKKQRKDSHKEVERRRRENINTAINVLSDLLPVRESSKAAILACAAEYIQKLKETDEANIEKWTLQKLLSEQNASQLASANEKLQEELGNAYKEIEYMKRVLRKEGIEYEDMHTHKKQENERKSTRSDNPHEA
Method: competition protein-binding microarray
Molecule type: double-stranded DNA, one strand shown
Medium: in vitro
Concentration: 2 µM
Setting: whole 60-bp probe, lowest competitor level
Together with: Pho4 competitor, 0.05 µM
Direction: higher = stronger binding
Constant ends, left off below: … GTCTTGATTCGCTTGACGCTGCTG
Oligonucleotide	fluorescence intensity [a.u.]
ACCCTGCCCTCATATCACCTGCGTTTCCGTTAAACT	93.9
CTAACGAAGGTTTGTCCTGTGGGTGACAAGCCAAGT	69.8
AAATATTAGGGACAGTGCGTGCCGACCCATAAGTTG	74.5
TCATCCAAGTCAGGCCTCGTGAAAAAGAATTCTACT	158
CGTCCTAGTGATTGTAGCGTGGGTGCCATGAGGAAG	84.2
CTAACGAAGGTTTGCCCCGTGGGTGACAAGCCAAGT	77.4
AGGACGACTGCTTTACTCGTGAAAATGGAACACAAG	108
TGCGCAACAACTTGAAGCGTGGGTGTATGTCTAGAA	70.2
CAAGTTTGTTTGCTTTTCGTGCAAAATATTAAATAG	92.6
CGATATAGAACAAAGCACGTGTAATTATTCAACTTT	1750
CTTTCCCGATCTTGAATAGTGGGTGTAGCACATTTG	72.1
CATACCCAACCTTGACGCGTGGGTGAAGATATTTGT	78
GCCAAAGCGCAAGGCCGCGTGGACCACCAGGACGAA	52.6
CCAAAAACCCTACGGCATGTGGGATTGGGACACCTT	60.7
CAAGTTGTCTTTCAGCACATGGAGAGGTGGGAGTGC	71.5
CAGTGGAATCTTCATCACATGCTCGAACCGGCTTGA	667
GAAGCATGCTGTCCTCACGGGAATTATATTGTGTGA	115
GAAGGTGCCTCTTCCCACATGGCCGAGCCCTCGCCG	54.8
TCAAACTGAGATCCGGTCATGACAATACTGTCAACA	77.6
GCCAGGGATCCTCACCACGTCGCCGTCCTGTAATCC	57.4
GAACAGGATCTCCGCCATGTGAATATTTATGCATGA	117
TAGTCAAGTAGCCATCACGTGAGGATAATATATTAC	5600
TTCTGCATCCAATATCACCTGACGTTCATCTTTATG	883
CGGGGTTAAGTTTGATTGGTGGGTGGCTTGCAGCAG	75
GGGATTTCGTTACAGCACGTGGCAAGCAGAGGAAGA	1390

Sample 3
Target: Interferon regulatory factor 5, full length, phosphomimetic (IRF5, Homo sapiens, UniProt Q13568-2, residues 1-514, S451D/S453D/S456D/S462D)
Method: protein-binding microarray
Molecule type: double-stranded DNA, one strand shown
Medium: in vitro
Concentration: 940 nM top
Setting: 60-bp whole probe
Together with: salmon DNA 0.4 mg/ml
Relative to: random background probes
Direction: higher = stronger binding
Constant ends, left off below: GCCTAGCAC … GTCTTGATTCGCTTGACGCTGCTG
Oligonucleotide	fitted relative affinity
AGTTGTTTTAAATTCTAATTGTGCTAG	0.261 z-score
TGTGCCATATTTATCTGCAAGTGCTAG	-0.0633 z-score
TTAGATTTCGGGATTCGATTAGTGCTA	0.812 z-score
GTGGCTCACACCTGTCATCCCGTGCTA	-0.523 z-score
TTACGTCTCGGTTTCGGTTAGTGCTAG	10.6 z-score
CAGAGCCTCAGGCCTCACACAGTGCTA	-0.706 z-score
TCAACTTTCTTTAACATACTGTGCTAG	1.7 z-score
TTAGGTCTCGTTTTCGGTTAGTGCTAG	3.64 z-score
CTGCTCCTCTTTTTTTGGTAGTGCTAG	0.667 z-score
GACGGTTTCTACTATCGGGACGTGCTA	2.83 z-score
TTCATTATTGTTTCCTCTTTGTGCTAG	1.82 z-score
TTAGGACTGGGGTTTCTGTTAGTGCTA	1.66 z-score
TTAGAACTGTGGACTGGATTAGTGCTA	-0.479 z-score
TACGGTATCGGACTGGGGACGTGCTAG	2.29 z-score
GACGGATTCCTTATCCTGACGTGCTAG	-0.194 z-score
TCAGGGCTCTCTTCTGCTACTGTGCTA	-0.0899 z-score
TCACTTCTGGATTTTTTACTGTGCTAG	1.01 z-score
GACGGACTGCTTATCCTGTCGTGCTAG	0.199 z-score
TTAGGTTTAGACTTTCGGTTAGTGCTA	2.44 z-score
TCACCTTTATGTCCTGTACTGTGCTAG	0.818 z-score
GTCGGACTGGGTCTCGGGACGTGCTAG	-0.254 z-score
TCACCTCTAGACTCTAAAACTGTGCTA	0.578 z-score
GACGGTTTCGGGTATAGGGACGTGCTA	9.05 z-score
CACGATTTCAGTTCCGAGACGTGCTAG	0.917 z-score
TCAGATTTCCATTATTGACTGTGCTAG	0.729 z-score

Sample 4
Target: Histone acetyltransferase KAT6A, winged helix 2, GST fusion (KAT6A, Homo sapiens, UniProt Q92794, residues 85-181)
Method: protein binding microarray
Molecule type: double-stranded DNA, one strand shown
Medium: in vitro
Concentration: not given
Setting: 8-mer, flanks averaged, mean of 2 arrays, mostly near background
Relative to: not given
Direction: higher = stronger binding
Target sequence (chain): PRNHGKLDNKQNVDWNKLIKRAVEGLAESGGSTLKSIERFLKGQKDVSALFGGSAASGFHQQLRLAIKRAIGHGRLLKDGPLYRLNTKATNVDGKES
Oligonucleotide	E-score
ATTTTTGA	-0.0317
CATAAGCC	-0.0847
ATTTTGAA	0.187
CTCACCTC	0.0374
GGAACAGA	0.00229
CAAGCTTA	0.114
CGTGCTCA	0.125
CGGGAGGC	0.0856
ACCCACTG	0.132
CATTGGAC	-0.0489
CTGGTTCA	0.0279
GCCGCTTA	0.038
ATTCTAAC	-0.0295
GTTCTGAA	-0.000875
GTTTCCGA	0.119
GCAAAGCA	0.0794
AGTATCGC	0.0408
CCTATTTA	-0.133

Sample 5
Target: Sal-like protein 4, full length isoform B (SALL4, Homo sapiens, UniProt Q9UJQ4-2, residues 1-616)
Method: universal PBM
Molecule type: double-stranded DNA, one strand shown
Medium: in vitro
Concentration: not given
Setting: 8-mer, flanks averaged, mean of replicates
Direction: higher = stronger binding
Target sequence (chain): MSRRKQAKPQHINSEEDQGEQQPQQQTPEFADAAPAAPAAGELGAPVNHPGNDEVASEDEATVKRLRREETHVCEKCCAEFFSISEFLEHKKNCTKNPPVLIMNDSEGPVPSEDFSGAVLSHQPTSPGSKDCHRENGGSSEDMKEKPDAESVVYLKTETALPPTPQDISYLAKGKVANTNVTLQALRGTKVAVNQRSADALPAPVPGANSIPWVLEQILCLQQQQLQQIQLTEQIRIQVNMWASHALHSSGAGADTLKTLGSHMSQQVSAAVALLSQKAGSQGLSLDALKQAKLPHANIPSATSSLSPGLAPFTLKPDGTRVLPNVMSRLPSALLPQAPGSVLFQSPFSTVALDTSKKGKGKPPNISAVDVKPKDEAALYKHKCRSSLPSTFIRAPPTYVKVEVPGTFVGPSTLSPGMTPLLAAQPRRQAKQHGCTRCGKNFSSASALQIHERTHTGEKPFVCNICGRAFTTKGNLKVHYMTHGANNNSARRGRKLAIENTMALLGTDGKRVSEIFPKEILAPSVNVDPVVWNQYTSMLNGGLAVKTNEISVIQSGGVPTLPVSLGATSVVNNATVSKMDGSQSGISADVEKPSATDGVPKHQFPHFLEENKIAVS
Oligonucleotide	E-score
GTAAACGA	0.171
AAACATTT	0.327
CCTGACCC	-0.27
ATGGGTAA	0.164
TCAGTACA	0.115
AACGGATC	0.0472
CACGTCAG	-0.169
GGAGCGCA	-0.303
CTCAGTTA	-0.00521
ATAGGCCG	-0.198
AAATTAGC	0.104
GATCCGTA	-0.208
GGGAGTCA	-0.124
ATTACGGA	0.0253
GTAGCACA	-0.0705
CATGGGAA	-0.0187
AGTCAGCG	-0.316
ATACGCCC	-0.0942
GGCTATGA	-0.0174
GACCATAA	0.187
AAACGTGG	-0.0487
CACCTCGA	-0.12
CCTCTGCC	-0.163
GTCCCTTA	-0.0473
AGGAATTA	0.252

Sample 6
Target: Transcription factor SOX-2, HMG box (SOX2, Homo sapiens, UniProt P48431, residues 19-118)
Chain of UniProt P48431 (19-118, looked up): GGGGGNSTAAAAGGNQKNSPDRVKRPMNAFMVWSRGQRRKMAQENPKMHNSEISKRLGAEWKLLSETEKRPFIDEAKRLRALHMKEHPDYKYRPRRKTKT
Method: protein-binding microarray
Molecule type: double-stranded DNA, one strand shown
Medium: in vitro
Concentration: not given
Setting: k-mer, scored over probes, only values ≥0.25
Direction: higher = stronger binding
Oligonucleotide	E-score
ATTGTCA	0.413
AATTGCC	0.294
CAAATTA	0.315
AATAATG	0.396
TAAATGA	0.273
TAAACAA	0.316
AACAATC	0.435
AATAAAA	0.315
AATGCAT	0.283
CAATTCA	0.462
CTTTGTC	0.272

A few entries again (sample 5):
Oligonucleotide	E-score
GATCCGTA	-0.208
GGGAGTCA	-0.124
ATTACGGA	0.0253
GTAGCACA	-0.0705
CATGGGAA	-0.0187
AGTCAGCG	-0.316
ATACGCCC	-0.0942
GGCTATGA	-0.0174
GACCATAA	0.187
